Results of several laboratories.
Parts stem from different laboratories: compare values within a part only.

Block 1 — method: Sort-seq; item: YFP reporter; matrix: E. coli; setting: PhoQ-PhoP variant library; added: 10 µM Mg2+; relative to: high Mg2+ state; reading: higher = stronger signaling
Molecule: PhoQ, residues 284 288 289 292 302 303 AGHLVA
It gave 0.685 for fold induction (PhoP, residues 12 14 15 18 19 GMGLL (Escherichia coli, UniProt P23836)).
PhoP, residues 12 14 15 18 19 LFHKL (Escherichia coli, UniProt P23836) — fold induction: 4.46.
It gave 19 for fold induction (PhoP, residues 12 14 15 18 19 QQAYL (Escherichia coli, UniProt P23836)).

Block 2 — method: RNA Bind-n-Seq; form: RNA; matrix: in vitro; concentration: 200 nM; setting: whole 134-nt RNA, ends assumed; added: 150 mM KCl; relative to: input library; reading: higher = stronger binding
Target: Ras GTPase-activating protein-binding protein 1, full length (G3BP1, Homo sapiens, UniProt Q13283)
UniProt Q13283, sequence (whole entry, looked up): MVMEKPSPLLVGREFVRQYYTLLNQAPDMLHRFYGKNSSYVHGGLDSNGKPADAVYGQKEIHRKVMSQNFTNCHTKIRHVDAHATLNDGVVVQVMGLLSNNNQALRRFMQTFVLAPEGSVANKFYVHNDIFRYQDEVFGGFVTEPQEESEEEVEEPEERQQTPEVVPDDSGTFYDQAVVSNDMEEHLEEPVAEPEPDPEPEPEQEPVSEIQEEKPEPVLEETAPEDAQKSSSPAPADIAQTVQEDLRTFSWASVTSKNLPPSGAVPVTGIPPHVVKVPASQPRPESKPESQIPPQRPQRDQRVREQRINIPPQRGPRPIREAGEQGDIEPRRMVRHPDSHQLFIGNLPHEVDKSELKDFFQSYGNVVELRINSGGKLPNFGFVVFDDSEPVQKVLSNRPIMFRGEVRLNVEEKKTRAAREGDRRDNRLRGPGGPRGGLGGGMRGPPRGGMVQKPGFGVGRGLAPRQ
Constant ends, left off below: GGGAGUUCUACAGUCCGACGAUC … UGGAAUUCUCGGGUGUCAAGG
The log2 enrichment of `AAGUCCUGUGCUACACAUCGUAUGUACCGAAUCGGGGAGGGGAGGGGUUUUUGGGGAAAGUAUUAUGUUACGCCGUUCGGAUCUGCACUU` is reported as 0.628.
With `UGGCCCUAGUGGCAUGCGGGGAGGAAGAGGUGGCCUCAUGGAUCGUGGUGGUCCCGGUGGAAUGUUCAGAGGUGGCCGUGGUGGAGACAG` the log2 enrichment was 0.218.
`GUCCUGUGCUACACAUCGUAUGUACCGAAUCGGGUUUUUUGGUUUUUUGGUUUUUUGGAAAGUAUUAUGUUACGCCGUUCGGAUCUGCAC` has a log2 enrichment of -1.29.
`UGCCUCGGGAGGAGCUGUUUGUGACAUCCAAGCUGUGGAACACCAAGCACCACCCCGAGGAUGUGGAGCCUGCCCUCCGGAAGACUCUGG` gave a log2 enrichment of -1.38.
For `GUCCUGUGCUACACAUCGUAUGUACCGAAUCGGGCCCCCGGGGCCCCCGGGCCCCCGGGAAAGUAUUAUGUUACGCCGUUCGGAUCUGCA`, the log2 enrichment was -0.727.
For `UGUGCUACACAUCGUAUGUACCGAAUCGGGGUUUUUUUGGGGUUUUUUUGGUUUUUUUGGGGAAAGUAUUAUGUUACGCCGUUCGGAUCU`, the log2 enrichment was -0.669.
`AGUCCUGUGCUACACAUCGUAUGUACCGAAUCGGGGCCCCGGGGCCCCGGGCCCCGGAAAGUAUUAUGUUACGCCGUUCGGAUCUGCACU` has a log2 enrichment of 0.374.
With `UCCUGUGCUACACAUCGUAUGUACCGAAUCGGGGAAAAAGGGGUGGGGUUUUUUUGGGGAAAGUAUUAUGUUACGCCGUUCGGAUCUGCA` the log2 enrichment was 0.634.
The log2 enrichment of `GUGCUACACAUCGUAUGUACCGAAUCGGGGUUUUUUUGGGGAAAAAAAGGGGAAAAAAAGGGGAAAGUAUUAUGUUACGCCGUUCGGAUC` is reported as -0.361.

Block 3 — method: competition protein-binding microarray; form: double-stranded DNA, one strand shown; matrix: in vitro; concentration: 2 µM; added: Cbf1 competitor, 0.05 µM; reading: higher = stronger binding; constant ends, left off below: … GTCTTGATTCGCTTGACGCTGCTG
Target: Phosphate system positive regulatory protein PHO4, full length, GST-tagged (PHO4, Saccharomyces cerevisiae, UniProt P07270, residues 1-312)
Setting: whole 60-bp probe, lowest competitor level
Target sequence (chain): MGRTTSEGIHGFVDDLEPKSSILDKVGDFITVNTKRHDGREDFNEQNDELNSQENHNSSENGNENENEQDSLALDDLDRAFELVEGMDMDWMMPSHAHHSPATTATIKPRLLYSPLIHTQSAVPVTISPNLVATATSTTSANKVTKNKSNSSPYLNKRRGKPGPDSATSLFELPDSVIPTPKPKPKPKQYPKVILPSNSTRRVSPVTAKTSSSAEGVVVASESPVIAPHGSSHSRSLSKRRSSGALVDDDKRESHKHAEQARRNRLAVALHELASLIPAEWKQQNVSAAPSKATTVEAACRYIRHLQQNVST
For `CTTGATTCTAAATATCACAGTAGAATAATGGTTTAT`, the fluorescence intensity was 3420 a.u.
`CTTCTGTAAATTTGGGAAGTGGGTGGACGCGCCCCG` gave a fluorescence intensity of 4430 a.u.
The fluorescence intensity of `AAATTACTAAGTTGTGCAGTGGGTGACGCCGTATGA` is reported as 4680 a.u.
The fluorescence intensity of `CGTCCTAGTGATTGCCACGTGGGTGCCATGAGGAAG` is reported as 18700 a.u.
`GACAATTTGGATTTACACATGGTTGAGATCCTGCAG` has a fluorescence intensity of 6400 a.u.
The fluorescence intensity of `CATACCCAACCTTGGTTCGTGGGTGAAGATATTTGT` is reported as 6730 a.u.
`AAATTACTAAGTTTTCACGTGGCCTACCCCGTATGA` has a fluorescence intensity of 14500 a.u.
`ACATCGACGTTATCGCACGTGTGGATGTGTAAGTGG` has a fluorescence intensity of 18800 a.u.

Block 4 — method: RNA Bind-n-Seq; form: RNA; matrix: in vitro; concentration: 365 nM; relative to: no-protein control; reading: higher = stronger binding
Target: RNA binding protein fox-1 homolog 2, RRM domain, GST-SBP tag (RBFOX2, Homo sapiens, UniProt O43251-10, residues 100-194)
Setting: natural RNA segment, single round, ends assumed
Constant ends, left off below: GGGAGUUCUACAGUCCGACGAUC … UGGAAUUCUCGGGUGCCAA
Construct (chain): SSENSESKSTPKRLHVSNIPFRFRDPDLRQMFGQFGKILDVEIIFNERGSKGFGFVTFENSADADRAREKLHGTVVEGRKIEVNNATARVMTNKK
For `CCCUUAGUGAGGGCAAAGUGUAGUUGGUAGAAGAAAUUGCUAAAUACCUAUCUAAUGUGCUAUGUUUAUCAAAUCGUGUACUAAAAUGGAAAGCUAGUUUUGAGAAAUUA`, “RBNS enrichment (R)” read 0.613.
`UGAGUACUGAUUUCAUGUUGAAUUGUAUCCCACACAUCAUGGUCUGCAGCUUCUUUUUCACAUGUAGUGUCUCCUUCAAGUUACAUCGUGUGUAUUAUUUAAUGUCACUA` — result for “RBNS enrichment (R)”: 0.388.
`UGUCAUUAGCUCCAAGUGUAAAUUUGGGUCAAGGAGACAGAAUAAUAAUGGGAAUCUCGGAGUUCGACACCAUAGUGACGUUCAGCGUCCUCUGAAUUGUGCUACAUCAG`: “RBNS enrichment (R)” 0.181.
`AAUGUCGGCGGCGCUGGGGUUGCAGGGAAAAGACAAAUCCUCAAAGCGUGGACGUGUGUCCCCAUGGCUUGUGGAUCAGCUAAGCUCGGGAUCAUUUCCAUAAGUCUGCU` — result for “RBNS enrichment (R)”: 0.593.
`ACUCAUACACGUAAUGUCUGCUUUUCGUACAGAACUAGCCAAUGUAAAAACAGUUCACCUGUAAAUACUUUUUCCUUUUUCACCGUUGUAUUAUACAUGUAUAUGCUGGG` — result for “RBNS enrichment (R)”: 0.292.
`AUAUUUGCUGCAUUUUUUUCCGUAUAUAUAACAUGUCUUCUUUCAGAAUGGGAAUAUAUGUGUGCCUCCCAACAUUUACUGUUAAAGUGUGUUAUCUUUAUAUGUCAAAC`: “RBNS enrichment (R)” 2.2.
`CUUAGUUUUACAAGAAAAACCAUUUGCUACUGAAUGCUUAAACUAAUUUUAGUGUUUAAUGUUACAUGCUUAAAUUUUUUUCAGUUUUAACAGUGGCAUAUUUAGGCAUG`: “RBNS enrichment (R)” 0.4.
For `UCUCAAUGAAGCCAGCUCACAGUGCUGUGUGCCCCGGUCACCUAGCAAGCUGCCGAACCAAAAGAAUUUGCACCCCGCUGCGGGCCCACGUGGUUGGGGCCCUGCCCUGG`, “RBNS enrichment (R)” read 0.574.

A few entries again (block 2):
The log2 enrichment of `GUGCUACACAUCGUAUGUACCGAAUCGGGGUUUUUUUGGGGAAAAAAAGGGGAAAAAAAGGGGAAAGUAUUAUGUUACGCCGUUCGGAUC` is reported as -0.361.
For `UGUGCUACACAUCGUAUGUACCGAAUCGGGGUUUUUUUGGGGUUUUUUUGGUUUUUUUGGGGAAAGUAUUAUGUUACGCCGUUCGGAUCU`, the log2 enrichment was -0.669.
